Measurements pooled from the literature.
Protocols differ between the studies behind these lines. ± marks the error that the study gave. ≈ marks a conversion by molar mass, not a printed value.
Organism: Staphylococcus aureus

SMILES | assay | test system | setting | how to read | endpoint | value
C=C(C)C(=O)NCCCCCCCCOCc1cn(CCCCCCCCNC(=O)C(=C)C)nn1 | growth, turbidity OD600 |  | 24 h |  | IC50 | > 100 µM
C=C(NC(=O)c1csc(-c2nc3c(cc2O)-c2nc(cs2)C(=O)NC(C(C)O)C(=O)NC(=C(C)OC)c2nc(cs2)C(=O)NC2c4nc(cs4)C(=O)NC(COC(=O)c4c5c6c(cccc6n4O)COC(=O)C(OC4CC(C)(O)C(N(C)C)C(C)O4)C2OC5)c2nc-3cs2)n1)C(N)=O (stereo not drawn) |  | MRSA, 10 isolates | serum 75% |  | MIC50 | 0.0625 µg/mL
CCCCCCCCCC(=O)Oc1c(C)c(OC)c2c(/C=C/c3ccccc3)c(CCCCCCCC)c(=O)oc2c1C | microbial killing, broth dilution | ATCC25923 |  |  | MBC | > 5000 µg/mL
CC(C)c1ccc2c(c1)CCC1C(C)(CN(CC(O)C[N+](C)(C)C)CC(O)C[N+](C)(C)C)CCCC21C (stereo not drawn) | microbial growth, disc diffusion | ATCC29213 | 62.5 µg/disc, 24 h |  | inhibition zone | 14 mm
C[n+]1nn(CCCCN2C(=O)C=CC2=O)cc1COCCCCN1C(=O)C=CC1=O | growth, turbidity OD600 |  | 24 h |  | IC50 | > 100 µM
CC[C@H](C)[C@H](NC(=O)[C@H](CC1CCCCC1)NC(=O)[C@H]1CCCN1C(=O)[C@@H](N)CCCN)C(=O)N[C@H](Cc1ccccc1)C(=O)N[C@@H](Cc1cn(Cc2ccccc2)cn1)C(N)=O |  | ATCC 33591, methicillin-resistant |  |  | IC50 | > 20 µg/mL
C=CCOc1c(C)c(OC)c(C(=O)/C=C/c2ccccc2)c(OCC=C)c1C | microbial killing, broth dilution | ATCC25923 |  |  | MBC | > 5000 µg/mL
CC[C@H](C)[C@H](NC(=O)[C@H](CC1CCCCC1)NC(=O)[C@H](CC1CCCCC1)NC(=O)[C@@H](N)CCCN)C(=O)N[C@H](Cc1ccccc1)C(=O)N[C@@H](Cc1cn(Cc2ccccc2)cn1)C(N)=O |  | ATCC 33591, methicillin-resistant |  |  | IC50 | > 20 µg/mL
C=C(C)C(=O)NCCCCOCc1cn(CCCCNC(=O)C(=C)C)n[n+]1C | growth, turbidity OD600 |  | 24 h |  | IC50 | > 100 µM
COc1c(C)c(OS(=O)(=O)c2ccccc2)c(C)c(OS(=O)(=O)c2ccccc2)c1C(=O)/C=C/c1ccccc1 | microbial killing, broth dilution | ATCC25923 |  |  | MBC | > 5000 µg/mL
C=C1CNCC2Nc3c(F)cc(Br)cc3C12CCNS(=O)(=O)c1ccc(Cl)cc1 (stereo not drawn) |  | MRSA ATCC BAA-44 | with: cefazolin |  | minimum resensitizing concentration | 4 µg/mL
CC[C@H](C)[C@H](NC(=O)[C@H](CCCN)NC(=O)[C@H](CC(N)=O)NC(=O)[C@H](Cc1c[nH]c2ccccc12)NC(=O)[C@H](Cc1ccccc1)NC(=O)[C@H](CCCN)NC(=O)[C@H](CCCCNC(=N)N)NC(=O)[C@H](CC(C)C)NC(=O)[C@H](Cc1c[nH]c2ccccc12)NC(=O)[C@H](CCCN)NC(=O)[C@H](CCCCNC(=N)N)NC(=O)[C@H](CC(C)C)NC(=O)CNC(C)=O)C(=O)N[C@@H](CCCN)C(=O)N[C@@H](CCCCNC(=N)N)C(N)=O |  |  | concentration not given, with: KCl 4.5 mM | relative to: no added salt | MIC fold change | 1 fold
Oc1cccc2c1[nH]c1c(C3=CC4(O)CCC=CCCCCN5CCC3C3(CC6C=CCCCCN6C43)C5)nccc12 (single isomer, unassigned; (+)) | growth | ATCC 43300, MRSA |  |  | IC50 | 0.82 ± 0.04 µg/mL
O=C1C=CC(=O)N1CCCCCCCCOCc1cn(CCCCCCCCN2C(=O)C=CC2=O)nn1 | growth, turbidity OD600 |  | 24 h |  | IC50 | > 100 µM
CCCCCCCCCCCC(=O)Oc1c(C)c(OC)c2c(/C=C/c3ccccc3)c(CCCCCCCCCC)c(=O)oc2c1C | microbial killing, broth dilution | ATCC25923 |  |  | MBC | > 5000 µg/mL
Cc1ccc(C(=O)Sc2cccccc2=O)cc1 | microbial growth, broth dilution | ATCC29213 |  |  | MIC80 | 13.2 µM (≈ 3.38 µg/mL)
C=CS(=O)(=O)NCCCCCCCCCCOCc1cn(CCCCCCCCCCNS(=O)(=O)C=C)nn1 | growth, turbidity OD600 |  | 24 h |  | IC50 | > 100 µM
C=C1CN(S(=O)(=O)c2ccc([N+](=O)[O-])cc2)CC2Nc3c(F)cc(Br)cc3C12CCNS(=O)(=O)c1ccc(Cl)cc1 (stereo not drawn) |  | MRSA ATCC BAA-44 | with: cefazolin |  | minimum resensitizing concentration | > 32 µg/mL

SMILES | assay | test system | setting | how to read | endpoint | value
CCCC[C@H](NC(=O)[C@@H](N)CCCN)C(=O)N[C@@H](CC1CCCCC1)C(=O)N[C@H](C(=O)N[C@H](Cc1ccccc1)C(=O)N[C@@H](Cc1cn(Cc2ccccc2)cn1)C(N)=O)[C@@H](C)CC | bacterial growth | ATCC 29213 |  |  | IC50 | > 20 µg/mL
COc1cc2c(cc1OC)-c1cc3ccc(OC)c(OC)c3c[n+]1CC2.[Cl][Fe-]([Cl])([Cl])[Cl] |  |  | 24 h, 37 °C |  | MBC | > 800 µM
CC[C@H](C)[C@H](NC(=O)[C@H](CC1CCCCC1)NC(=O)[C@H](Cc1ccccc1)NC(=O)[C@@H](N)CCCN)C(=O)N[C@H](Cc1ccccc1)C(=O)N[C@@H](Cc1cn(Cc2ccccc2)cn1)C(N)=O | bacterial growth | ATCC 29213 |  |  | IC50 | > 20 µg/mL
O=C(Oc1cccccc1=O)c1ccc(Cl)cc1 | microbial growth, broth dilution | ATCC29213 |  |  | MIC80 | 13.2 µM (≈ 3.44 µg/mL)
CC(CCCOC(=O)CCC[N+](C)(C)C)C1CCC2C3CCC4CC(OC(=O)CCC[N+](C)(C)C)CCC4(C)C3CCC12C (stereo not drawn) | microbial growth, disc diffusion | ATCC29213 | 62.5 µg/disc, 24 h |  | inhibition zone | 13 mm
COc1ccc2cc3[n+](cc2c1OC)CCc1cc2c(cc1-3)OCO2.[Cl][Fe-]([Cl])([Cl])[Cl] |  |  | 24 h, 37 °C |  | MIC50 | 60.1 µM
CC[C@H](C)[C@H](NC(=O)[C@H](CC1CCCCC1)NC(=O)[C@@H](CC(C)C)NC(=O)[C@@H](N)CCCN)C(=O)N[C@H](Cc1ccccc1)C(=O)N[C@@H](Cc1cn(Cc2ccccc2)cn1)C(N)=O | bacterial growth | ATCC 29213 |  |  | IC50 | > 20 µg/mL
N=C(N)NCCC[C@@H]1NC(=O)[C@H](CCCNC(=N)N)NC(=O)[C@@H](CCCNC(=N)N)NC(=O)[C@@H](CCCNC(=N)N)NC(=O)[C@@H](C(c2ccccc2)c2ccccc2)NC(=O)[C@H](Cc2c[nH]c3ccccc23)NC(=O)[C@@H](C(c2ccccc2)c2ccccc2)NC1=O |  | MRSA ATCC BAA-1556 | MIC |  | time to complete killing | 3 to 4 h
CC(CCCOC(=O)CCC[N+](C)(C)C)C1CCC2C3CCC4CC(OC(=O)CCC[N+](C)(C)C)CCC4(C)C3CC(OC(=O)CCC[N+](C)(C)C)C12C (stereo not drawn) | microbial growth, disc diffusion | ATCC29213 | 250 µg/disc, 24 h |  | inhibition zone | 29 mm
C[n+]1nn(CCCCCCCCCCN2C(=O)C=CC2=O)cc1COCCCCCCCCCCN1C(=O)C=CC1=O | microbial growth, absorbance |  | 24 h |  | IC50 | 36.1 µM
CC(CCCOC(=O)CCC[N+](C)(C)C)C1CCC2C3C(OC(=O)CCC[N+](C)(C)C)CC4CC(OC(=O)CCC[N+](C)(C)C)CCC4(C)C3CC(OC(=O)CCC[N+](C)(C)C)C12C (stereo not drawn) | microbial growth, disc diffusion | ATCC29213 | 62.5 µg/disc, 24 h |  | inhibition zone | 11 mm
Cc1cccc(C(=O)Oc2cccccc2=O)c1 | microbial growth, broth dilution | ATCC29213 |  |  | MIC80 | 15.4 µM (≈ 3.7 µg/mL)
CCCCCC(=O)Oc1c(C)c(OC)c2c(/C=C/c3ccccc3)c(CCCC)c(=O)oc2c1C | microbial killing, broth dilution | ATCC25923 |  |  | MBC | > 5000 µg/mL
C=CC(=O)NCCCCCCCCCCOCc1cn(CCCCCCCCCCNC(=O)C=C)nn1 | growth, turbidity OD600 |  | 24 h |  | IC50 | > 100 µM
CCCCCCCCCC(=O)N[C@@H](Cc1c[nH]c2ccccc12)C(=O)N[C@H](CC(N)=O)C(=O)N[C@@H](CC(=O)O)C(=O)N[C@@H]1C(=O)NCC(=O)N[C@@H](CCCNC(=O)OC2/C=C/CCCCC2)C(=O)N[C@@H](CC(=O)O)C(=O)N[C@H](C)C(=O)N[C@@H](CC(=O)O)C(=O)NCC(=O)N[C@H](CO)C(=O)N[C@@H]([C@H](C)CC(=O)O)C(=O)N[C@@H](CC(=O)c2ccccc2N)C(=O)O[C@@H]1C (stereo partly drawn) | planktonic bacterial growth, isothermal microcalorimetry | MSSA | 2.0 µg/mL, 24 h, 37 °C, with: TAG hydrogel |  | peak heat flow time | 0 h
CC(C)C1=CC2=CCC3C(C)(C(=O)OCCC[N+](C)(C)C)CCCC3(C)C2CC1 (stereo not drawn) | microbial growth, disc diffusion | ATCC29213 | 125 µg/disc, 24 h |  | inhibition zone | 18 mm
CC(=O)N[C@@H](CCCCN)C(=O)N1CCC[C@H]1C(=O)N[C@H](C(=O)N[C@@H](Cc1ccccc1)C(=O)N[C@@H](CCC(N)=O)C(=O)N[C@@H](Cc1ccccc1)C(=O)N[C@@H](CC(C)C)C(=O)N[C@@H](Cc1ccccc1)C(=O)N[C@@H](Cc1c[nH]cn1)C(=O)N[C@@H](CCC(=O)O)C(N)=O)C(C)C | flow cytometry | USA300, hydrogel | concentration not given, 4 h, pH 7.4, 37 °C |  | PI-permeable cells | 0.32%
COc1cc(Cc2cnc(N)nc2N)cc(OC)c1OC.O=c1[nH]cc(F)c(=O)[nH]1 | broth microdilution |  | 48 h |  | MBC | 4 µg/mL

Repeated from above:
SMILES | assay | test system | setting | how to read | endpoint | value
CC[C@H](C)[C@H](NC(=O)[C@H](CC1CCCCC1)NC(=O)[C@H]1CCCN1C(=O)[C@@H](N)CCCN)C(=O)N[C@H](Cc1ccccc1)C(=O)N[C@@H](Cc1cn(Cc2ccccc2)cn1)C(N)=O |  | ATCC 33591, methicillin-resistant |  |  | IC50 | > 20 µg/mL
CC[C@H](C)[C@H](NC(=O)[C@H](CC1CCCCC1)NC(=O)[C@@H](CC(C)C)NC(=O)[C@@H](N)CCCN)C(=O)N[C@H](Cc1ccccc1)C(=O)N[C@@H](Cc1cn(Cc2ccccc2)cn1)C(N)=O | bacterial growth | ATCC 29213 |  |  | IC50 | > 20 µg/mL
